Published values collected from several papers.
Each line is one published result; not all experiments were run side by side. Several values in a cell are separate wells, animals, samples, runs or records.
Target: Homeodomain-interacting protein kinase 3 (HIPK3, Homo sapiens, UniProt Q9H422)

SMILES | test | conditions | how to read | endpoint | value
O=C(Cc1ccc(OCc2ccccc2)cc1)NC1(C(=O)O)CCN(C(=O)c2ccc(-c3cccc(Cl)c3)cc2)CC1 | enzyme activity, inhibitor | 10 µM | – | activity vs control | 101%
Nc1ncc2c(n1)-c1c([nH]c3ccc(C4=CCOCC4)cc13)CCC2 | binding, competition with immobilised ligand | 1 µM | – | remaining binding | 50%
COc1cc(Nc2nccc(-c3cnn4nc(OC)ccc34)n2)cc(C(F)(F)F)c1 | binding, competition with immobilised ligand | 1 µM | – | remaining binding | 69%
Nc1ncc(-c2cc(-c3cnn(CC(F)(F)F)c3)ncc2F)nc1C(=O)NC1CNCC(F)C1 (centres unmarked) | enzyme activity | 1 µM | baseline: DMSO control | remaining activity | 99.2%
CNC(=O)C[C@H](Cc1ccc(C#N)cc1)NC(=O)c1cc(-c2ccc(CN[C@H](C)c3ccc(C)cc3)o2)ccc1Cl | enzyme activity, inhibitor | 1 µM | – | activity vs control | 96%
C=CC(=O)Nc1cccc(-c2cnc3[nH]cc(C(=O)NC(C)(C)C)c3n2)c1 | kinase activity | 0.1 µM | – | inhibition | 44% and 50%
CN1CC[C@@H](COc2cnc(C#N)cc2-c2ccn3nc(NC(=O)C4CC4)cc3c2)C1 | enzyme activity, inhibitor | 1 µM | – | inhibition | 9%
O=C=[N][Ru-4]123([n]4c5ccc(O)cc5c5c6c(c7cc(F)c[n+]1c7c54)C(=O)NC6=O)[S+]1CC[S+]2CC[S+]3CC1 (centres unmarked) | enzyme activity | 100 nM, human enzyme, added: 10 µM ATP | baseline: untreated | remaining activity | 91%
NC(=O)[C@@H](O)C[C@H]1CCc2sc3ncnc(O[C@H]4CC[C@H](N5CCOCC5)CC4)c3c21 | enzyme activity, inhibitor | 10 µM | – | inhibition | 1%
C=CC(=O)N1CCCC(n2c(=O)c3ncccc3n(Cc3ccc(Oc4ccccc4)cc3)c2=O)C1 (centres unmarked) | cell-free assay, competition with immobilised ligand | 1 µM | – | remaining binding | 97%
COc1c(Cl)cccc1Nc1c(-c2ccncc2C#C[C@@]2(C)CCCN2C(=O)/C=C/CN(C)C)[nH]c2c1C(=O)NCC2 | binding, competition with immobilised ligand | 3 µM | – | remaining binding | 90%
COc1c(OCCCN2CCOCC2)ccc2c1N=C(NC(=O)c1cnc(N)nc1)N1CCN=C21 | kinase activity, inhibitor | 1 µM | baseline: untreated control | remaining activity | 103%
Cc1cccc(O[C@H]2CCC[C@@H](C(C)CNCc3ccncc3)C2)c1 (relative stereo) | enzyme activity, inhibitor | 1 µM | – | inhibition | 0%
C=CC(=O)N1CCc2ccc(-n3c(=O)ccc4cnc5ccc(-c6cnn(C)c6)cc5c43)cc21 | KINOMEscan | 1 µM | baseline: DMSO control | remaining binding | 68%

A few entries again:
SMILES | test | conditions | how to read | endpoint | value
COc1cc(Nc2nccc(-c3cnn4nc(OC)ccc34)n2)cc(C(F)(F)F)c1 | binding, competition with immobilised ligand | 1 µM | – | remaining binding | 69%
C=CC(=O)Nc1cccc(-c2cnc3[nH]cc(C(=O)NC(C)(C)C)c3n2)c1 | kinase activity | 0.1 µM | – | inhibition | 44% and 50%
